Published values from different studies.
Protocols differ between the studies behind these lines. ± gives the spread as reported.
B1: BGLU7 (Oryza sativa, UniProt Q75I93); chain AAVPKPNWLGGLSRAAFPKRFVFGTATSAYQVEGMAASGGRGPSIWDAFAHTPGNVAGNQNGDVATDQYHRYKEDVNLMKSLNFDAYRFSISWSRIFPDGEGRVNQEGVAYYNNLINYLLQKGITPYVNLYHYDLPLALEKKYGGWLNAKMADLFTEYADFCFKTFGNRVKHWFTFNEPRIVALLGYDQGTNPPKRCTKCAAGGNSATEPYIVAHNFLLSHAAAVARYRTKYQAAQQGKVGIVLDFNWYEALSNSTEDQAAAQRARDFHIGWYLDPLINGHYPQIMQDLVKDRLPKFTPEQARLVKGSADYIGINQYTASYMKGQQLMQQTPTSYSADWQVTYVFAKNGKPIGPQANSNWLYIVPWGMYGCVNYIKQKYGNPTVVITENGMDQPANLSRDQYLRDTTRVHFYRSYLTQLKKAIDEGANVAGYFAWSLLDNFEWLSGYTSKFGIVYVDFNTLERHPKASAYWFRDMLKH
B2: enzyme (Cyanidioschyzon merolae, UniProt M1V8C6); chain EPPRDTAATSSHEFTHHVTEKAKDWSGSGTWLQSYIEQGPLAAAIPPQYAPSRSLSRWQAWGSYLFKELGLDGTLERDQNRIFRFYLPVFAWSLHVVNRLQRDERRKQHGVIIGLQCPQGGGKTTLTAALQKLFDLEQRRCVSLSIDDFYLTRREQEALARAFPENPLLGSRGNPGTHDISLALQVLNEVVAAPYPGEHAEVAVPRYDKSAFQGLGDRAPPEQWPLVSRPVDVVFLEGWCLGFRPLALHERPATMDPITLRHLMQVDRFLAEDFSRLYPLLDAFIVIALDGPKLSESLRIVYQWRLEAEQQMRAAGRPAMTDEQVYAFVDKFMPAYKAYLGDLYGGPPLTGNLSRELRVGIDETRSPTRLNPHSELVP
B3: enzyme A477T (Populus trichocarpa, UniProt A0A2K1ZZ60); chain ITRQYTFNITHKNFTRLCHTRSLVTVNGQFPGPRLVAREGDQVLVKVVNHVAENITIHWHGVRQLTSGWADGPAYVTQCPIQTGQAYTYNFTITGQRGTLLWHAHISWLRSSLYGPIIILPKLNESYPFKKPYKEIPILFGEWFNVDPEAVIAQALQTGAGPNVSDAYTINGLPGPLYNCSAKDTYKLKVKPGKTYLLRLINAALNDELFFSIANHTLTVVEADAVYVKPFEADTLLISPGQTTNVLLKTKPHLPNATFYMFAGPYFSGMGSFDNSTTAGVLVYKHPSSNNHLKKLPTLKPTLPPINATGFVANFTKKFRSLANAKFPANVPQTVDRKFFFTVGLGTNPCPKNTTCQGPNNNTKFAASINNVSFVLPSVALLQSYFFGQSNGVFTSDFPQNPTIPFNYTGTPPNNTMVSNGTKAVVLTFNTSVELVMQGTSIVTAESHPLHLHGFNFFVVGQGFGNYDPNKDPSNFNLVDPMERNTAGVPAGGWIAIRFLADNPGVWFMHCHLDVHTSWGLRMAWIVLDGPQPNQKIPPPPSDLPKC
B4: enzyme (Enterococcus faecalis, UniProt Q838J7); chain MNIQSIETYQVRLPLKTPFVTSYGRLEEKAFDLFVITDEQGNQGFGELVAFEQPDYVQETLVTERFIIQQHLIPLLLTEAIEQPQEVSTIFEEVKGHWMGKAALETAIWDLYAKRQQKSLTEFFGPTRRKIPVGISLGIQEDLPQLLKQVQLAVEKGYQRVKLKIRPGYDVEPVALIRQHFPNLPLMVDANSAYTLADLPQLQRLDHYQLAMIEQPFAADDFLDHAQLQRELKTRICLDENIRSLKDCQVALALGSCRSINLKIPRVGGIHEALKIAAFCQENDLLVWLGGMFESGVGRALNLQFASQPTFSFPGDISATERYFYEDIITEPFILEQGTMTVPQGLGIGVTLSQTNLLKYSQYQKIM
B5: enzyme (Enterococcus faecalis, UniProt Q836M4); chain MEIHFEKVTSDNRKAVENLQVFAEQQAFIESMAENLKESDQFPEWESAGIYDGNQLIGYAMYGRWQDGRVWLDRFLIDQRFQGQGYGKAACRLLMLKLIEKYQTNKLYLSVYDTNSSAIRLYQQLGFVFNGELDTNGERVMEWTHQNK
B6: bglA A17S/S39T/T105V (Acetivibrio thermocellus, UniProt P26208); chain MSKITFPKDFIWGSATSAYQIEGAYNEDGKGESIWDRFTHTPGNIADGHTGDVACDHYHRYEEDIKIMKEIGIKSYRFSISWPRIFPEGTGKLNQKGLDFYKRLVNLLLENGIMPAITLYHWDLPQKLQDKGGWKNRDTTDYFTEYSEVIFKNLGDIVPIWFTHNEPGVVSLLGHFLGIHAPGIKDLRTSLEVSHNLLLSHGKAVKLFREMNIDAQIGIALNLSYHYPASEKAEDIEAAELSFSLAGRWYLDPVLKGRYPENALKLYKKKGIELSFPEDDLKLISQPIDFIAFNNYSSEFIKYDPSSESGFSPANSILEKFEKTDMGWIIYPEGLYDLLMLLDRDYGKPNIVISENGAAFKDEIGSNGKIEDTKRIQYLKDYLTQAHRAIQDGVNLKAYYLWSLLDNFEWAYGYNKRFGIVHVNFDTLERKIKDSGYWYKEVIKNNGF

`B1 (BGLU7)` gave a kcat of 29.9 ± 2.33 s⁻¹ (CC(C)(C#N)O[C@@H]1O[C@H](CO)[C@@H](O)[C@H](O)[C@H]1O; steady-state kinetics; pH 6, 30 °C, not purified).
The kcat of `nfsB K14R (Escherichia coli)` is reported as 2.7 ± 0.3 s⁻¹ (NC(=O)N/N=C/c1ccc([N+](=O)[O-])o1; steady-state kinetics; pH 7, 37 °C).
For `B2 (enzyme)`, the kcat was 22.3 ± 0.64 s⁻¹ (Nc1ncnc2c1ncn2[C@@H]1O[C@H](COP(=O)(O)OP(=O)(O)OP(=O)(O)O)[C@@H](O)[C@H]1O; steady-state kinetics; pH 7.8, 30 °C).
For `B3 (enzyme A477T)`, the kcat was 5.09 ± 0.69 s⁻¹ (COc1cc(/C=C/CO)cc(OC)c1O; steady-state kinetics; 27 °C).
`TDP2 (Homo sapiens, UniProt O95551)` has a kcat of 35 ± 2.8 s⁻¹ (Cc1cn([C@H]2C[C@H](O)[C@@H](COP(=O)(O)Oc3ccc([N+](=O)[O-])cc3)O2)c(=O)[nH]c1=O; steady-state kinetics).
The kcat of `B4 (enzyme)` is reported as 310 ± 12 s⁻¹ (O=C(O)CCC(=O)C1=CC=C[C@@H](O)[C@@H]1C(=O)O; steady-state kinetics; pH 8, 25 °C).
`rCR L137V (Lodderomyces parapsilosis)` gave a kcat of 3.58 ± 0.11 s⁻¹ (CC(=O)c1ccc(Cl)cc1; steady-state kinetics; pH 7, 30 °C, together with: NADH 0.5 mM).
`enzyme (Pseudomonas aeruginosa, UniProt Q9HWT7)` gave a kcat of 0.0624 ± 0.00205 s⁻¹ (O=C(O)/C=C/c1ccc(O)cc1; steady-state kinetics; pH 8, 37 °C, together with: NADH 1 mM, FAD 10 µM, HpaC).
For `enzyme (Aptenodytes forsteri, UniProt A0A087QWN2)`, the kcat was 0.02 s⁻¹ (C[C@]12CCC(=O)C=C1CC[C@@H]1[C@@H]2CC[C@]2(C)C(=O)CC[C@@H]12; steady-state kinetics; pH 7.4).
For `B5 (enzyme)`, the kcat was 26.7 ± 0.7 s⁻¹ (CC(=O)SCCNC(=O)CCNC(=O)[C@H](O)C(C)(C)COP(=O)(O)OP(=O)(O)OC[C@H]1O[C@@H](n2cnc3c(N)ncnc32)[C@H](O)[C@@H]1OP(=O)(O)O; steady-state kinetics; pH 8, 37 °C, Hill n 1.36, together with: spermine 1 mM).
With `fcl (Campylobacter jejuni, UniProt F2X7A6)` the kcat was 0.27 ± 0.01 s⁻¹ (Nc1nc2c(ncn2[C@@H]2O[C@H](COP(=O)(O)OP(=O)(O)O[C@H]3O[C@@H](CCO)C(=O)[C@H](O)[C@@H]3O)[C@@H](O)[C@H]2O)c(=O)[nH]1; steady-state kinetics; pH 7.5, 25 °C, apparent).
The fold change of `insulin human` is reported as 1.01 (refers to: NLGN1 mRNA; EcoHIV-infected mouse, brain; i.p., dose not given; reference: PBS).
The kcat of `B6 (bglA A17S/S39T/T105V)` is reported as 282 ± 5 s⁻¹ (O=[N+]([O-])c1ccc(O[C@@H]2O[C@H](CO)[C@@H](O)[C@H](O)[C@H]2O)cc1; steady-state kinetics; pH 5.5, 60 °C).

Some of these lines once more:
The kcat of `nfsB K14R (Escherichia coli)` is reported as 2.7 ± 0.3 s⁻¹ (NC(=O)N/N=C/c1ccc([N+](=O)[O-])o1; steady-state kinetics; pH 7, 37 °C).
